# Published values gathered from unrelated publications.
# Every numbered part comes from another study and shows a few of its results, in no order. Values joined by “and” are separate records of one study, mostly repeats; a detail may differ.
# UniProt P45984, sequence (whole entry, looked up): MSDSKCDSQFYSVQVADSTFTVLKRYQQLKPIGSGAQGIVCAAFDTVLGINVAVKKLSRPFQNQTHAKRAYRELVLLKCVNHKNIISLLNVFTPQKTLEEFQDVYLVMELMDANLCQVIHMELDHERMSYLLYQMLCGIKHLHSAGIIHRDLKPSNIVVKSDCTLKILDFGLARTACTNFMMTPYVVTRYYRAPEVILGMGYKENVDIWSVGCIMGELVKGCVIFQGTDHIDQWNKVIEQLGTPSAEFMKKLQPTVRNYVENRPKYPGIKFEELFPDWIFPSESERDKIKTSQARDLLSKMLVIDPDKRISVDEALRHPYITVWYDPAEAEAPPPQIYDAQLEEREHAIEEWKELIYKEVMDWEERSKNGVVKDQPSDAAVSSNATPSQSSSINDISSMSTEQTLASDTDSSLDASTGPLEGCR
# UniProt O96017, sequence (whole entry, looked up): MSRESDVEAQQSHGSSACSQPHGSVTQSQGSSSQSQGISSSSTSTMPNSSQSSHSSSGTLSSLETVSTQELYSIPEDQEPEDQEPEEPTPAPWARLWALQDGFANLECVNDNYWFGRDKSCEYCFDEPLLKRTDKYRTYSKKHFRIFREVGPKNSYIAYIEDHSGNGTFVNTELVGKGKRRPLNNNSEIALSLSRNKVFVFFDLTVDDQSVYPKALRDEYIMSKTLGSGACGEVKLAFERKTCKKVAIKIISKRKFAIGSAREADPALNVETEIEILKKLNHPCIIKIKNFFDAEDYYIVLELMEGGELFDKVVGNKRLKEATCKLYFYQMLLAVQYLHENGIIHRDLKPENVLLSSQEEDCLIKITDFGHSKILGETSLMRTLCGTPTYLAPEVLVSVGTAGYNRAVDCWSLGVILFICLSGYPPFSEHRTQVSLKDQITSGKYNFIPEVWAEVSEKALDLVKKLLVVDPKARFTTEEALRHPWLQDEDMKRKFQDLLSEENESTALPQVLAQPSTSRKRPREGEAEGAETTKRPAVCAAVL
# UniProt Q96BR1, sequence (whole entry, looked up): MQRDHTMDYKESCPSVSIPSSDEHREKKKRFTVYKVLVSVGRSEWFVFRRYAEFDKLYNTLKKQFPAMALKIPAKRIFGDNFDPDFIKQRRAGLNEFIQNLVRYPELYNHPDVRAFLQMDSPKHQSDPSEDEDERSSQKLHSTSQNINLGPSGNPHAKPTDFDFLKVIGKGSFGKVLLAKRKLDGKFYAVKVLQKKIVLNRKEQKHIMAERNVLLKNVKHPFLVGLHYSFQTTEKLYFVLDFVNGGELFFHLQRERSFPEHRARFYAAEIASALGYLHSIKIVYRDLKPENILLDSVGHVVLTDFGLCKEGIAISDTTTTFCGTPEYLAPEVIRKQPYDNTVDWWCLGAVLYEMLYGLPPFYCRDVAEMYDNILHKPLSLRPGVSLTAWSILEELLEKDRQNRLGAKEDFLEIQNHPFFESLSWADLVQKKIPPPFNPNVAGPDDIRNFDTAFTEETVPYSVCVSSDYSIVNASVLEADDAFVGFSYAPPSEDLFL
# UniProt P35626, sequence (whole entry, looked up): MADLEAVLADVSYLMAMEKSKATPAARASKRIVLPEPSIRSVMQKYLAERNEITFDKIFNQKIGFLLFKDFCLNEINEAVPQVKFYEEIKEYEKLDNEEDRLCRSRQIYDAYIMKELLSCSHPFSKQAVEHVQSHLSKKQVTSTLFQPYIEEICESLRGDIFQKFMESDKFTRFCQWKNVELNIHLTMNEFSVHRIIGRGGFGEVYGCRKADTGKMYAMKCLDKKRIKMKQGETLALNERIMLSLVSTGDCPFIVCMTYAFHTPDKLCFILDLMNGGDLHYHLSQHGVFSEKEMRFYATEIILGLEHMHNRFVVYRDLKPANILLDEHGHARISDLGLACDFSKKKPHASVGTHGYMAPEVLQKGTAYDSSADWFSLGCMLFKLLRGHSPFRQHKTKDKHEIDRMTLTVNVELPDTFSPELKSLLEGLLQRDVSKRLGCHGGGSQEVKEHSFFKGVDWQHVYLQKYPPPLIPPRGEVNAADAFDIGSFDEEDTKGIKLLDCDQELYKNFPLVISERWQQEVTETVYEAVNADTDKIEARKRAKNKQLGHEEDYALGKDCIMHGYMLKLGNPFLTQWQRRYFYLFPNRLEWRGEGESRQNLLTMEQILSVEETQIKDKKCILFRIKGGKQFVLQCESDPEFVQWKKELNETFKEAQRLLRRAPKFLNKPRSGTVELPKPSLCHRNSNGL
# UniProt Q9P0L2, sequence (whole entry, looked up): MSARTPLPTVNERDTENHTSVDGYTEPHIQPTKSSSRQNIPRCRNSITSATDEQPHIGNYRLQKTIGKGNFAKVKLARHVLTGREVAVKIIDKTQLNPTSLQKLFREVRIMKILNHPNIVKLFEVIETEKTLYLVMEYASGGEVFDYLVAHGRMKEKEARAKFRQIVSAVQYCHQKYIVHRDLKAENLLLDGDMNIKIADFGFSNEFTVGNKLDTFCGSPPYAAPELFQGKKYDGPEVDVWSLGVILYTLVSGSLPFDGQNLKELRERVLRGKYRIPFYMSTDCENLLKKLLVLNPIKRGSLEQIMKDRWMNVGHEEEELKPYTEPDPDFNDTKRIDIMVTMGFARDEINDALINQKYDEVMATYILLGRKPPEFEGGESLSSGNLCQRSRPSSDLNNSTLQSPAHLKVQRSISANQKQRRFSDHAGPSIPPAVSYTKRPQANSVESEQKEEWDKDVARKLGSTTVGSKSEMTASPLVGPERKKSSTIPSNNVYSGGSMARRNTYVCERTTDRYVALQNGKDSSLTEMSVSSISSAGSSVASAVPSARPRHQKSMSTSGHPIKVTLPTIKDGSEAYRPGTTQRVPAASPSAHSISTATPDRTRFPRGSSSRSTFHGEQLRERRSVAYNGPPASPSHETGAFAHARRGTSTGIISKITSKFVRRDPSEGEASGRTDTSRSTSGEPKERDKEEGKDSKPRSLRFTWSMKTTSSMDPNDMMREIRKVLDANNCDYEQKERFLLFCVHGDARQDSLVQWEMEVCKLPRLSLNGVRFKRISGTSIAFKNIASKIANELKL
# UniProt Q00535, sequence (whole entry, looked up): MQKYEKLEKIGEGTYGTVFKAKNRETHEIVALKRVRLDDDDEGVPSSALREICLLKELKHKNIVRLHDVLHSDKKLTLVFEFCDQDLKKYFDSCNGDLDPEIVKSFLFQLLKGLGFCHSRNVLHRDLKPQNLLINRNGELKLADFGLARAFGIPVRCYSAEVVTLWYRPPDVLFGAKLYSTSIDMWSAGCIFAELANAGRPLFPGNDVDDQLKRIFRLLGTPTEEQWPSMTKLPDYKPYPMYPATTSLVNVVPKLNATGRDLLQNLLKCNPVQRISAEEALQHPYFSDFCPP
# UniProt Q8TDR2, sequence (whole entry, looked up): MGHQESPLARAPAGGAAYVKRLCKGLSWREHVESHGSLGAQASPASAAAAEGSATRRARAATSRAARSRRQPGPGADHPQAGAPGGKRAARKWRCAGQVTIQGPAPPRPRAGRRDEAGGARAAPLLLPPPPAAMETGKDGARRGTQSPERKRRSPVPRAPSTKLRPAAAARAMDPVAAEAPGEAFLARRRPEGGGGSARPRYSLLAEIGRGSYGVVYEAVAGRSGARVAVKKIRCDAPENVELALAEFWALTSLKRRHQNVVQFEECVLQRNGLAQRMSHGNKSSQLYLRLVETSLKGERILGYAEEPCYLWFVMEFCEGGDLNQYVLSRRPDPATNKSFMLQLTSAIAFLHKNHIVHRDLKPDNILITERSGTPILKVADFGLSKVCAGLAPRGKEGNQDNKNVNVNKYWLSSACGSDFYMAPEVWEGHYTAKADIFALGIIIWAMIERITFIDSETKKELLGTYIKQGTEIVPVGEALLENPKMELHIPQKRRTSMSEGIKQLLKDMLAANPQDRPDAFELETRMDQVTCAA
# UniProt P36897, sequence (whole entry, looked up): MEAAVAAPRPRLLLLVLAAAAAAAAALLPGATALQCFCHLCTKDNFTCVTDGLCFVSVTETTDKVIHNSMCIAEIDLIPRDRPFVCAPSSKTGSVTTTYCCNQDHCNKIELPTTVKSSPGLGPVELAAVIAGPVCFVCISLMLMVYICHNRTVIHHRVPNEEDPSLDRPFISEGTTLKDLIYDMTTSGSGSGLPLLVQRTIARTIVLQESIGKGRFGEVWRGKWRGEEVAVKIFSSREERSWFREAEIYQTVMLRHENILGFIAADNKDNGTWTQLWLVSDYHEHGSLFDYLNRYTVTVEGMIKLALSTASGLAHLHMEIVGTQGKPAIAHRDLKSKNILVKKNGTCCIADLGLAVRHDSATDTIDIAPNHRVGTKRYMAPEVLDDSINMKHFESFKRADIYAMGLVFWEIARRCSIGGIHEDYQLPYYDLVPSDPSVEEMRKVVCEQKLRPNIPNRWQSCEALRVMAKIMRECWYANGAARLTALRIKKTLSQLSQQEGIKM
# UniProt Q99759, sequence (whole entry, looked up): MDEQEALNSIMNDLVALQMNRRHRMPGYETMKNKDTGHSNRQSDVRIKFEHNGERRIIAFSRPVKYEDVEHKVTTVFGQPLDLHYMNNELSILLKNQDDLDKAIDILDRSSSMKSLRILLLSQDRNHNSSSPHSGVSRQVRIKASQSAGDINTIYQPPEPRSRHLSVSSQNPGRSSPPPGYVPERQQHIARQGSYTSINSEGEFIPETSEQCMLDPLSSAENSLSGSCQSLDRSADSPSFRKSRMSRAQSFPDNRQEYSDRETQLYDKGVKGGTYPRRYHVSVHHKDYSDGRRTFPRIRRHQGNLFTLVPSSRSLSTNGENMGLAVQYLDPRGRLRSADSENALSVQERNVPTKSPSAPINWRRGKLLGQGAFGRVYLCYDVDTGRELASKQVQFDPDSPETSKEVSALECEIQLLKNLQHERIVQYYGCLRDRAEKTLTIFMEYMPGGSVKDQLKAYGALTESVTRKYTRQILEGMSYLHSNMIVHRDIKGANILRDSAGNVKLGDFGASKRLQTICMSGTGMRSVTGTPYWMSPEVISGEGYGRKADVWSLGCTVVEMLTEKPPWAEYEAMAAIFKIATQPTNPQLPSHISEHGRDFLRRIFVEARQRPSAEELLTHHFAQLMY

# Series 1 — cell line: HaCaT; tested at: 100 µM; time: 36 h
SMILES,viability [%]
CCOC(=O)C1=C(C)NC(C)=C(C(=O)OC)C1c1cccc(Cl)c1Cl (centres unmarked),5.42
CN(C)CCc1c[nH]c2ccc(CS(=O)(=O)N3CCCC3)cc12,57.4
O[C@H]1[C@H](O)[C@@H](O)[C@H](O)[C@@H](O)[C@H]1O,82.4
O=C(O)c1ccc[n+]([O-])c1,85.4
O=c1cc[nH]c(=O)[nH]1,92.2
Nc1ccc(C(=O)O)c(O)c1,82.5
COc1c2occc2c(OC)c2c(=O)cc(C)oc12,45.7
CCC(C)n1ncn(-c2ccc(N3CCN(c4ccc(OC[C@H]5CO[C@](Cn6cncn6)(c6ccc(Cl)cc6Cl)O5)cc4)CC3)cc2)c1=O (mixture of isomers),81.8
Clc1ccc2nsnc2c1NC1=NCCN1,87.5

# Series 2 — observed: enzyme activity; mode: inhibitor; tested at: 0.5 µM; relative to: control
# SMILES: O=C1Cc2c([nH]c3ccc([N+](=O)[O-])cc23)-c2ccccc2N1
target,remaining activity [%]
"STK11 (Homo sapiens, UniProt Q15831)",90.2
"GRK3 (Homo sapiens, UniProt P35626)",88.9
"CHEK2 (Homo sapiens, UniProt O96017)",7.9
"OXSR1 (Homo sapiens, UniProt O95747)",97
"Cyclin-dependent kinase 5, with p25 (CDK5, Homo sapiens, UniProt Q00535)",10.5
"PRKCA (Homo sapiens, UniProt P17252)",59.9
"DAPK1 (Homo sapiens, UniProt P53355)",104
"MAP3K3 (Homo sapiens, UniProt Q99759)",100
"NEK2 (Homo sapiens, UniProt P51955)",92.4
"Protein kinase C beta type, isoform beta-I (PRKCB, Homo sapiens, UniProt P05771)",105
"PRKACA (Homo sapiens, UniProt P17612)",87.4
"TGFBR1 (Homo sapiens, UniProt P36897)",103
"TGFBR2 (Homo sapiens, UniProt P37173)",19.4
"STK39 (Homo sapiens, UniProt Q9UEW8)",77.5
"IKBKB (Homo sapiens, UniProt O14920)",102
"STK10 (Homo sapiens, UniProt O94804)",80.4
"CAMK2D (Homo sapiens, UniProt Q13557)",79.3
"cGMP-dependent protein kinase 1, isoform beta (PRKG1, Homo sapiens, UniProt Q13976)",96.8
"CAMKK2 (Homo sapiens, UniProt Q96RR4)",79.5
"DAPK2 (Homo sapiens, UniProt Q9UIK4)",97.2
"IKBKE (Homo sapiens, UniProt Q14164)",93.4
"MAPK9 (Homo sapiens, UniProt P45984)",97.2

# Series 3
# Structure (SMILES): c1ccc2c(-c3nn4c(-c5ccncc5)nnc4s3)c[nH]c2c1
target or system,test,test system,conditions,scale,enzyme activity
L444P/L444P Gaucher fibroblasts,4-MUG hydrolysis in lysate,,"0.05 µM, 72 h",relative to: vehicle,102% and 116% and 117% and 123%
L444P/L444P Gaucher fibroblasts,4-MUG hydrolysis in lysate,,"0.5 µM, 72 h, without ISRIB",relative to: vehicle,160% and 159% and 152% and 156% and 167% and 190%
alpha-galactosidase (human),,healthy dermal fibroblasts,"0.5 µM, with ISRIB",relative to: DMSO without ISRIB,245% and 208% and 150% and 250% and 137% and 181%
L444P/L444P Gaucher fibroblasts,4-MUG hydrolysis in lysate,,"0.1 µM, 72 h",relative to: vehicle,133% and 134% and 138% and 127% and 114% and 151% and 142% and 149%
L444P/L444P Gaucher fibroblasts,4-MUG hydrolysis in lysate,,"0.5 µM, 72 h",relative to: vehicle,165% and 185% and 169% and 178% and 151% and 233% and 180%
wild-type human fibroblasts,"GCase activity, 4-MUG hydrolysis lysate",,"0.5 µM, 48 h",relative to: vehicle,107% and 110% and 98.6% and 100% and 108%

# Series 4 — Structure (SMILES): c1ccc(N2CCN(Cc3nc4ccccc4[nH]3)CC2)nc1; method: competition with immobilised ligand; tested at: 1 µM
target,test,remaining binding [%]
"WNK4 (Homo sapiens, UniProt Q96J92)",binding,100
"CDK8 (Homo sapiens, UniProt P49336)",binding,100
"Tyrosine-protein kinase JAK2, JH1 (JAK2, Homo sapiens, UniProt O60674)",binding,100
"EIF2AK1 (Homo sapiens, UniProt Q9BQI3)",binding,100
"SGK3 (Homo sapiens, UniProt Q96BR1)",binding,100
"COQ8B (Homo sapiens, UniProt Q96D53)",cell-free assay,100
"FGFR3 (Homo sapiens, UniProt P22607, G697C)",cell-free assay,100
"MKNK1 (Homo sapiens, UniProt Q9BUB5)",binding,91
"Ribosomal protein S6 kinase alpha-5, N-terminal kinase domain (RPS6KA5, Homo sapiens, UniProt O75582)",binding,85
"MARK1 (Homo sapiens, UniProt Q9P0L2)",binding,100
"CDK17 (Homo sapiens, UniProt Q00537)",binding,100
"EPHA6 (Homo sapiens, UniProt Q9UF33)",cell-free assay,100
"PRKCH (Homo sapiens, UniProt P24723)",cell-free assay,89
"STK35 (Homo sapiens, UniProt Q8TDR2)",binding,100
"ACVR1 (Homo sapiens, UniProt Q04771)",cell-free assay,100
"PRKD3 (Homo sapiens, UniProt O94806)",binding,100
